Results of several laboratories.
Each line is one published result; not all experiments were run side by side.
Technique: steady-state kinetics
B1: alanine racemase H166A (Geobacillus stearothermophilus, UniProt P10724); chain MNDFHRDTWAEVDLDAIYDNVENLRRLLPDDTHIMAVVKANAYGHGDVQVARTALEAGASRLAVAFLDEALALREKGIEAPILVLGASRPADAALAAQQRIALTVFRSDWLEEASALYSGPFPIHFHLKMDTGMGRLGVKDEEETKRIVALIERHPHFVLEGLYTAFATADEVNTDYFSYQYTRFLHMLEWLPSRPPLVHCANSAASLRFPDRTFNMVRFGIAMYGLAPSPGIKPLLPYPLKEAFSLHSRLVHVKKLQPGEKVSYGATYTAQTEEWIGTIPIGYADGWLRRLQHFHVLVDGQKAPIVGRICMDQCMIRLPGPLPVGTKVTLIGRQGDEVISIDDVARHLETINYEVPCTISYRVPRIFFRHKRIMEVRNAIGRGESSA
B2: iodotyrosine deiodinase (Haliscomenobacter hydrossis, UniProt F4KU78); chain MKQKPAFIPYAGAQFEPEEMLSKSAEYYQFMDHRRTVREFSNRAIPLEVIENIVMTASTAPSGAHKQPWTFVVVSDPQIKAKIRQAAEKEEFESYNGRMSNEWLEDLQPFGTDWHKPFLEIAPYLIVVFRKAYDVLPDGTQRKNYYVQESVGIACGFLLAAIHQAGLVALTHTPSPMNFLQKILQRPENERPFLLVPVGYPAEGAMVPDLQRKDKAAVMVVY
B3: enzyme (Bacillus pumilus, UniProt A8FFI9); chain EARSIAWSVDEFFKNREGTFVIQEVKEKSPWVYNKKRAKERFAPQSTFKVANALIGLQTGAVRDEYDIKYWDGVKREIDNWNRDHTLGSGMRDSVVWYYQAMARDIGEERMNHWVKAIHYGNKDISGGIDQFWLSSTLRISPIEQVRFLKQLYEETLPFDLKNMRTVKRMMVQEEEKHATLYGKTGSGSDIGWYVGFIKHEHKTYILATNIKGTGIEAKDITYRILKKYHLMEASV
B4: speck S217A (Drosophila melanogaster, UniProt Q94521); chain MEDALTVSGKPAACPVDQDCPYTIELIQPEDGEAVIAMLKTFFFKDEPLNTFLDLGECKELEKYSLKPLPDNCSYKAVNKKGEIIGVFLNGLMRRPSPDDVPEKAADSCEHPKFKKILSLMDHVEEQFNIFDVYPDEELILDGKILSVDTNYRGLGIAGRLTERAYEYMRENGINVYHVLCASHYSARVMEKLGFHEVFRMQFADYKPQGEVVFKPAAPHVGIQVMAKEVGPAKAAQTKL
B5: NotC (UniProt E0Y3X0); chain MAIEEKSTSAEPGPYDALSRFSSLTGEDDRKWWEHTGPVLEKVMRDSGYELQSQYIYLYFVQQHLIPYLGKFPTRGQDDHRWQSNLTPYKVPYELSWNVSHKVVRISWDPVCDASGTENDAFNKKAIHDCTRQLAELDSTVILDRYRLLHKDLVITDEEEQQLLRRDVLPKSGRGQHNLAVDFQEGGITLKVYFYPYMKFLATGTPIEELFFSAIEKLRIADIDEAVGMLKCFLSPKSDDGKPSVDEKVFPSLLACDLCDPSKSRIKYYVIDKWVKWERIANLWTIGGRRLEDPYCAKGLALLKELWDLLAIPEGDRGDIWPNLVLGQPPTHLMTTIANYTLSPASRFPEPQVYLTTFGLNDMAIIDALTAFYERVGFTDMAKSYKKNVQSYYPNLDLNQTNWVHEAVSFSYRNSKPYLSVYYSPF
B6: putA N641A (Bradyrhizobium diazoefficiens, UniProt Q89E26); chain MPNIPPPFTAPYAPDDAEIAARLLPASHLSPPQEARIHRTATRLIEAIRKRDDRLGGVEDMLREFALSTKEGLALMVLAEALLRVPDARTADQFIEDKLGEGDFIHHETKSTAFLVNASAWALGLSARVIQPGETPDGTIGRLVKRLGAPAVRTATRQAMRLMGNHFVLGETIEQALERGKPRSGQKTRYSFDMLGEGARTAADARRYFDAYASAIETIGKAAGNHALPDRPGISVKLSALHPRFEAISRARVMVELVPQLLDLAQRAKAHDLNFTVDAEEADRLELSLDVIAATLADPSLKGWDGFGLAIQAYQKRASAVIDYVDALARAHDRKLMVRLVKGAYWDTEIKRAQERGLDGYPVFTRKAMTDLNYVACASKLLALRPRIFPQFATHNALTVATVLEMAEGSSGFEFQRLHGMGEALYEQLAKDHADIAYRTYAPVGSHRDLLAYLVRRLLENGANSSFVAQAADYRVPVPALLQRPADAIVRPQAAAHPRIPLPCDLFAPERRNSRGVEFGARTALDQLLTDVKAETGDLKPIADATPDQAHAAVAAARAGFAGWSRTPAGIRAAALEQAAHLLESRSAHFIALLQREGGKTLDDALSELREAADFCRYYAAQGRKLFGSETAMPGPTGESAALTMRGRGVFVAISPWNFPLAIFLGQVTAALMAGNSVVAKPAEQTPRIAREAVALLHEAGIPKSALYLVTGDGRIGAALTAHPDIAGVVFTGSTEVARSINRALAAKDGPIVPLIAETGGINAMIADATALPEQVADDVVTSAFRSAGQRCSALRLLFVQEDVADRMIEMVAGAARELKIGDPSDVATHVGPVIDVEAKQRLDAHIARMKTEARLHFAGPAPEGCFVAPHIFELTEAGQLTEEVFGPILHVVRYRPENLERVLRAIERTGYGLTLGVHSRIDDSIEAIIDRVQVGNIYVNRNMIGAVVGVQPFGGNGLSGTGPKAGGPHYLARFATEQTVTINTAAAGGNAALLAGEE
B7: enzyme C48S (Schizosaccharomyces pombe, UniProt Q9Y7P0); chain MFTGLVEAIGVVKDVQGTIDNGFAMKIEAPQILDDCHTGDSIAVNGTSLTVTDFDRYHFTVGIAPESLRLTNLGQCKAGDPVNLERAVLSSTRMGGHFVQGHVDTVAEIVEKKQDGEAIDFTFRPRDPFVLKYIVYKGYIALDGTSLTITHVDDSTFSIMMISYTQSKVIMAKKNVGDLVNVEVDQIGKYTEKLVEAHIADWIKKTQA
B8: enzyme P89H (Thermobifida fusca, UniProt Q47RA9); chain MIMIMASKSSPHDLPDVSGLSIAVLGGTGDQGRGLARRFAMAGHEVILGSRSAERAQAVAAELGEGLPVRGMDNAGAAEAGDVVIVAVHWDGHRALLESLKDVLAGKIVVDCVNPLGFDKRGAYALPVEEGSAAEQAAAILPDSRVVAAFHHVSAVLLLDPEVEKVDLDVLVLGDDREATDVVRALAARIPGVRGVYGGRLRNAHQVEAFTANLISINRRYKAHAGIRITDI
UniProt O60656, sequence (whole entry, looked up): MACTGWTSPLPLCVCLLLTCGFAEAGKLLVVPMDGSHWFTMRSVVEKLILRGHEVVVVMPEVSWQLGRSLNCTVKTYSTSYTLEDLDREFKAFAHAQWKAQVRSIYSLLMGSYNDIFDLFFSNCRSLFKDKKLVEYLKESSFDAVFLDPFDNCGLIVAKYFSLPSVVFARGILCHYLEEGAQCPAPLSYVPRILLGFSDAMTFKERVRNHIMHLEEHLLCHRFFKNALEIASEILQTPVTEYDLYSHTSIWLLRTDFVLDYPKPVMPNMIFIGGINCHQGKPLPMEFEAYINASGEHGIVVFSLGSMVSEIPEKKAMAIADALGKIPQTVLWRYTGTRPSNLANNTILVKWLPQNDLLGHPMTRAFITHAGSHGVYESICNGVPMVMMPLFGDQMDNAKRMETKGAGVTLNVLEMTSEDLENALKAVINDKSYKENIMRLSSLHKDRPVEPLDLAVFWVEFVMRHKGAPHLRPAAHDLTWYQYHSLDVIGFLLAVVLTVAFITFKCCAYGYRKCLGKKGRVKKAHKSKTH
UniProt P31513, sequence (whole entry, looked up): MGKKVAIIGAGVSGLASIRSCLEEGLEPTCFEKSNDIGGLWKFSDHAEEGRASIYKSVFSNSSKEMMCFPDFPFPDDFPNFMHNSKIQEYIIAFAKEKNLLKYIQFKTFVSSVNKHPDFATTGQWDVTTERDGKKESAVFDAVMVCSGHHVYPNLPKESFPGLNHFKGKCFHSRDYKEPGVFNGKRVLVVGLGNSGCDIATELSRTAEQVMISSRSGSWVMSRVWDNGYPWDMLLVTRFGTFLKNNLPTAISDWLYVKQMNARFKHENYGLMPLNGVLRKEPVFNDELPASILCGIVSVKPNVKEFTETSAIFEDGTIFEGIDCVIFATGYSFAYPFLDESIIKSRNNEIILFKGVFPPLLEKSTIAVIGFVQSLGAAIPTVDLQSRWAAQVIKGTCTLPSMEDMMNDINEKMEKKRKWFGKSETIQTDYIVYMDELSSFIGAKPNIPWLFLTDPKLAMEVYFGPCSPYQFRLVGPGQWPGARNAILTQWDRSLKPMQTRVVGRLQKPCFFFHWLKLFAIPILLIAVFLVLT
UniProt P76562, sequence (whole entry, looked up): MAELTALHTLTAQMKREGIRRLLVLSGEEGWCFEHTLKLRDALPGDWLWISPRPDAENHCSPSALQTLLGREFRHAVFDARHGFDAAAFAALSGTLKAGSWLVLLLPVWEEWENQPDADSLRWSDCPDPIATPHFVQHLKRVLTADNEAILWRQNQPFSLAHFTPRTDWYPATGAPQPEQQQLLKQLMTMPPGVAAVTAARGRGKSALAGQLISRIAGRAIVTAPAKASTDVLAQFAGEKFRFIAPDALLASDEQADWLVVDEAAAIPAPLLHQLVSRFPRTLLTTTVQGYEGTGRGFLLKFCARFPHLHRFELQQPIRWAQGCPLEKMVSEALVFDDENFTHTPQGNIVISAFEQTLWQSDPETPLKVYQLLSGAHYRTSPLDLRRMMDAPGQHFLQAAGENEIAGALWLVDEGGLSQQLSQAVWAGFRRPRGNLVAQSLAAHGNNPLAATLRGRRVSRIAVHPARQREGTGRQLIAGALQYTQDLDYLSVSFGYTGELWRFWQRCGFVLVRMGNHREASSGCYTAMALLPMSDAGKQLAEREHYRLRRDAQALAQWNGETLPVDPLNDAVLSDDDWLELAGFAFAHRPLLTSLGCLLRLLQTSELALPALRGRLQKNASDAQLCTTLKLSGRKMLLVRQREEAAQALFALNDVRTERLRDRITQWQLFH

| Substance | substrate | medium | pH | temperature | notes | added | Km [µM] |
| --- | --- | --- | --- | --- | --- | --- | --- |
| B1 (alanine racemase H166A) | C[C@@H](N)C(=O)O | – | pH 9 | room temperature | – | NAD+ 10 mM | 1600 |
| B2 (iodotyrosine deiodinase) | Cc1cc(C[C@H](N)C(=O)O)cc(I)c1O | – | pH 7.4 | 25 °C | – | – | 16 |
| Ptb (Listeria monocytogenes, UniProt Q8Y7B7) | CCCCCC(=O)SCCNC(=O)CCNC(=O)[C@H](O)C(C)(C)COP(=O)(O)OP(=O)(O)OC[C@H]1O[C@@H](n2cnc3c(N)ncnc32)[C@H](O)[C@@H]1OP(=O)(O)O | – | pH 7.5 | 25 °C | apparent, poor fit | – | 31.5 |
| B3 (enzyme) | C[C@@H](O)[C@H]1C(=O)N2C(C(=O)O)=C(S[C@@H]3CN[C@H](CNS(N)(=O)=O)C3)[C@H](C)[C@H]12 | – | pH 7 | – | – | – | 4.1 |
| B4 (speck S217A) | CC(=O)SCCNC(=O)CCNC(=O)[C@H](O)C(C)(C)COP(=O)(O)OP(=O)(O)OC[C@H]1O[C@@H](n2cnc3c(N)ncnc32)[C@H](O)[C@@H]1OP(=O)(O)O | – | pH 7.2 | 30 °C | – | – | 360 |
| B5 (NotC) | CC(C)=CCOP(=O)(O)OP(=O)(O)O | – | pH 7.5 | – | – | 6-hydroxy-deoxybrevianamide E 22, MgCl2 5 mM | 1.89 |
| B6 (putA N641A) | O=C(O)[C@@H]1CCCN1 | – | pH 8 | 23 °C | – | – | 100000 |
| B7 (enzyme C48S) | Cc1nc2c(=O)[nH]c(=O)nc-2n(C[C@H](O)[C@H](O)[C@H](O)CO)c1C | – | pH 7.2 | 37 °C | apparent | – | 1.1 |
| B8 (enzyme P89H) | NC(=O)c1ccc[n+](CCO)c1 | – | pH 8 | 25 °C | – | – | 20000 |
| FMO3 (Homo sapiens, UniProt P31513) | CN1CCC[C@H]1c1cccnc1 | HEK293 microsomes | – | 37 °C | not purified | NADPH regenerating system | 700 |
| tmcA (Escherichia coli, UniProt P76562) | Nc1nc2c(ncn2[C@@H]2O[C@H](COP(=O)(O)OP(=O)(O)OP(=O)(O)O)[C@@H](O)[C@H]2O)c(=O)[nH]1 | – | pH 7.8 | – | – | – | 117 |
| UGT1A9 (Homo sapiens, UniProt O60656) | COc1ccc(/C=C\c2cc(OC)c(OC)c(OC)c2)cc1O | – | pH 7.4 | 37 °C | – | – | 4.18 |

Repeated from above:
| Substance | substrate | medium | pH | temperature | notes | added | Km [µM] |
| --- | --- | --- | --- | --- | --- | --- | --- |
| B2 (iodotyrosine deiodinase) | Cc1cc(C[C@H](N)C(=O)O)cc(I)c1O | – | pH 7.4 | 25 °C | – | – | 16 |
